Measurements collected from several papers.
Each numbered part is a random draw from the data of one study; scales do not carry over between parts.

Block 1
Target: Histone acetyltransferase KAT6A, both winged helices, GST fusion (KAT6A, Homo sapiens, UniProt Q92794, residues 1-181)
Method: protein binding microarray
Form: double-stranded DNA, one strand shown
Medium: in vitro
Tested at: not given
Notes: 8-mer, flanks averaged, mean of 2 arrays, mostly near background
Reference: not given
Reading: higher = stronger binding
Target sequence (chain): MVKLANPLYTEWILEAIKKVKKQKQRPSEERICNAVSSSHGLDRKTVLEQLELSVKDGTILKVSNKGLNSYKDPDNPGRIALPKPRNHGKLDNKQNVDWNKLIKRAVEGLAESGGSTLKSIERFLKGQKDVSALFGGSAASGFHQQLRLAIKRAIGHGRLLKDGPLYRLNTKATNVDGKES
The E-score of `CATACGGC` is reported as 0.263.
With `TAAACCGA` the E-score was 0.0689.
With `CCAGCGGA` the E-score was 0.163.
`CCAATTCC` gave an E-score of -0.124.

Block 2
Target: Fragile X messenger ribonucleoprotein 1, C-terminal low-complexity region (Fmr1, Mus musculus, UniProt P35922)
Method: RNA Bind-n-Seq
Form: RNA
Medium: in vitro
Tested at: 200 nM
Notes: whole 134-nt RNA, ends assumed
With: 150 mM LiCl
Reference: input library
Reading: higher = stronger binding
Each molecule: 7-deaza-guanosine replaces G
The log2 enrichment of `GGGAGUUCUACAGUCCGACGAUCUCUCCACCUGCUGAGCUCCCCAGUUUGAGGCGGAGCACACGCCAAAAGACCACGGGCUCCUGUGCUAGUACCAGGUAAUUUGUUUUUUUUUGGAAUUCUCGGGUGUCAAGG` is reported as 1.04.
For `GGGAGUUCUACAGUCCGACGAUCGUGCUACACAUCGUAUGUACCGAAUCGGGGUUUUUUUGGGGAAAAAAAGGGGAAAAAAAGGGGAAAGUAUUAUGUUACGCCGUUCGGAUCUGGAAUUCUCGGGUGUCAAGG`, the log2 enrichment was -1.95.
For `GGGAGUUCUACAGUCCGACGAUCCCUCAAGUCCUGUGCUACACAUCGUAUGUACCGAAUCGGAGGAAAGGUUUGGAAAGUAUUAUGUUACGCCGUUCGGAUCUGCACUUCCAGUGGAAUUCUCGGGUGUCAAGG`, the log2 enrichment was -1.3.

Block 3
Target: Sal-like protein 4, full length isoform A (SALL4, Homo sapiens, UniProt Q9UJQ4, residues 1-1053)
Chain of UniProt Q9UJQ4 (whole entry, looked up): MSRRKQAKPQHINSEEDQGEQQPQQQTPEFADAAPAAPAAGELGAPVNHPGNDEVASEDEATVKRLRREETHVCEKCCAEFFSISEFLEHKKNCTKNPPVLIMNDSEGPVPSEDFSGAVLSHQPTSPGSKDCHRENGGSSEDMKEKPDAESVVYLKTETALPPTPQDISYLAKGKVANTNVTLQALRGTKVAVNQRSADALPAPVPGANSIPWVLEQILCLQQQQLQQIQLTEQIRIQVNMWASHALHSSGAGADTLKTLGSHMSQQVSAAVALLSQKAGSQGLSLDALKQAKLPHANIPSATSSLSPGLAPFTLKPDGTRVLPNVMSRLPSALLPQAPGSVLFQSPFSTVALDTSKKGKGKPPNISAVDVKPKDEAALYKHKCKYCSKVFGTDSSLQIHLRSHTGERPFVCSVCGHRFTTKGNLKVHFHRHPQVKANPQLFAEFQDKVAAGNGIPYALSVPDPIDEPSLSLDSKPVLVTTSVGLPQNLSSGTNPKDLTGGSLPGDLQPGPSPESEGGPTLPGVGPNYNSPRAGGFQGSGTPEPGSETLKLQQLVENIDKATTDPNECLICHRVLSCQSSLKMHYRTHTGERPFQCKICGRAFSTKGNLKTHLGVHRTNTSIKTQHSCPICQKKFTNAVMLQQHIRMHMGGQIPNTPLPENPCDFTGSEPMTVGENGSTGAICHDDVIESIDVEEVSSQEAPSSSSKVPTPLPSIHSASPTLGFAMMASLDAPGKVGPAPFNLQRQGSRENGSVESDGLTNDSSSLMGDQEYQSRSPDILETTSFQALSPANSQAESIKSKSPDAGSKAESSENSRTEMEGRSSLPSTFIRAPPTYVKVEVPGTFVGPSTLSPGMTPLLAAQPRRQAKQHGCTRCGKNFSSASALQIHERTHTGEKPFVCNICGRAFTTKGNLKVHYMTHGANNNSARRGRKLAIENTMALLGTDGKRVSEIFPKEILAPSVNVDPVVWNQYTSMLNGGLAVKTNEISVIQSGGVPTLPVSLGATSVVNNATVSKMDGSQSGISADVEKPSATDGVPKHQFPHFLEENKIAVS
Method: universal PBM
Form: double-stranded DNA, one strand shown
Medium: in vitro
Tested at: 600 nM
Notes: 8-mer, flanks averaged, mean of replicates
Reading: higher = stronger binding
`ACGTCTGC` has an E-score of -0.199.
`AAAGCAAC` has an E-score of 0.016.
`TCCGCGAA` has an E-score of 0.00982.
`GATTTTAA` has an E-score of 0.235.

Mixed results
`PhoQ, residues 284 288 289 292 302 303 SSLVEF` gave a fold induction of 1.84 (PhoP, residues 12 14 15 18 19 LHSVQ (Escherichia coli, UniProt P23836); Sort-seq, measured: YFP reporter; E. coli; PhoQ-PhoP variant library, with: 10 µM Mg2+; reference: high Mg2+ state, higher = stronger signaling).

Some of these lines once more (block 1):
`CCAATTCC` gave an E-score of -0.124.
